# Results pooled from the literature.
# Each numbered part is a random draw from the data of one study; scales do not carry over between parts.

# Sample 1
# Target: RNA binding protein fox-1 homolog 2, RRM domain, GST-SBP tag (RBFOX2, Homo sapiens, UniProt O43251-10, residues 100-194)
# Method: RNA Bind-n-Seq
# Form: RNA
# Sample: in vitro
# Concentration: 365 nM
# Setting: natural RNA segment, single round, ends assumed
# Baseline: no-protein control
# Reading: higher = stronger binding
# Target sequence (chain): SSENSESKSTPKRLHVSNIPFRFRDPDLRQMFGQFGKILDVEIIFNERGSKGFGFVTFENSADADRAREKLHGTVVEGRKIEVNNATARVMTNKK
Oligonucleotide,RBNS enrichment (R)
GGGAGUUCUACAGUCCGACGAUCUCCCCUACCCCUCUAUCAUUUAGUUUCUUCUGCGCAAGCCACUCUGGCUUCCUUUCAGUUUUGUGGUUCCCAUUUUUAGCUAGUUCAGUGGUUUUCAAUGGGCAUUUCUGUGGAAUUCUCGGGUGCCAA,0.424
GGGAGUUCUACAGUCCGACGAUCCUCAGCAGAAGUGAUGACUCUUAAAAAUUGGCUUUGACCAAAGUUCUCUUGUUUUCAGGGAAAGAACAUAAAAGCUUUUUGAACUACAGCCUUUUUAAAAGAGGGAUGGGUGGAAUUCUCGGGUGCCAA,0.549
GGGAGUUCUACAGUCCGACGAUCACACUGAGUUGUACAAAUUGUGAUUGAGGAGAUGAAAAAGUUUAUACUUUUUAAAAAAAAAAAAAACAAAAAACAAAACUUCAAAUGGAAUAAAUUAUUCAUGAAGCCUUUGGAAUUCUCGGGUGCCAA,0.777
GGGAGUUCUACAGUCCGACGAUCAUAUACAGGAUAGCCUAAUUUUAUUUGUUUAAAUAUGCUUAAUAUGCCCCAGAUUGCAAAUGCAUCCAGUCAGUAAUAUCACUGUCUGUAUGUGGAGGACAUGUUCCCAUUGGAAUUCUCGGGUGCCAA,0.394
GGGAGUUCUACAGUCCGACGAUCAAGGUCACAGAGCUCCACCACCCAUGUCCUGUGUCAACAACCCGGUCCCUGUGGCACCUGUAACUGGCCAUAGUGUCUUUCUGGUCUGUGUGUUCUUCCAGCCAGCCUUGUGGAAUUCUCGGGUGCCAA,0.78
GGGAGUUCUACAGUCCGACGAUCGAGCCUGGAGCAGAAAUGGCAGCCCCAUCCUUCCUCCAGCCACUACCCCAAGCUACAGUGGGGGCCCAUGGCCCCAGCUUGCUAGGUCACCCUCCACCCCUCCUCCAGCGUGGAAUUCUCGGGUGCCAA,0.363
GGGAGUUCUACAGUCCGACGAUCCCUUGCCAUGGCAGCAAAGUACGACGACUACCACCACGAGCGCUGGCACAGGGUCCAUCCCGCCAUGGCAACAGCAGCAGGCGGCUGCCGCAGCUUCUCCAGGAACCCCUUGGAAUUCUCGGGUGCCAA,0.335
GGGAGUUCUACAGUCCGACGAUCCCCAGUUUCUAGAUGAAUGCAACAUGAUGAUGGUGAUGAUGACGAUGAGUUUAAUCAUUGUUCAUUUAUUGCCUUUAGGGCUGAGGGAAAGGGAAGGUUUGUUUUUUUUUUGGAAUUCUCGGGUGCCAA,1.3
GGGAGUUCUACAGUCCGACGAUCUUUAAUCACUAGCCAAAUUAAAUAAAAGCAUUUAUGAGAACUCUAAACCUUUCUGUAUUUGAGAGAGAUGCAAACUUCUAGAGUAAAAGUUGAAUAAAAAGUCACAGAGGUGGAAUUCUCGGGUGCCAA,0.719
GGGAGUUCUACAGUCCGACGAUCAGUUGUCCUCUGAUAUUUUCACAGCCUGUUAGUGGCGGCUGAUCUGUAGAGGUAUGAAAAUACAGCCCCAAAGGGGGAAUUUGUCAUGGGGAAGGGCCAGCCACUGACUAUGGAAUUCUCGGGUGCCAA,1.16
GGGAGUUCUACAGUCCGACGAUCAGGGGGUAAAAUCAAGAGAAAAAACUCUCAGGAAUCAAGGAACAUAAUCCUGUGGAGGGUAAUCCAUUACAUGAGCUUCUCCUGUUCUUCCACUUUCCUGCCUGGCUUUCUGGAAUUCUCGGGUGCCAA,0.401
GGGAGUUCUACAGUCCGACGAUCAAAAAGUUUGUGACAUUGUAGUAGGGAGUGUGUACCCCUUACUCCCCAUCAAAAAAAAAAAUGGAUACAUGGUUAAAGGAUAGAAGGGCAAUAUUUUAUCAUAUGUUCUAUGGAAUUCUCGGGUGCCAA,0.603

# Sample 2
# Target: RING finger protein unkempt homolog, zinc fingers 1-6, SBP tag (UNK, Homo sapiens, UniProt Q9C0B0, residues 30-357)
# UniProt Q9C0B0, sequence (30-357, looked up): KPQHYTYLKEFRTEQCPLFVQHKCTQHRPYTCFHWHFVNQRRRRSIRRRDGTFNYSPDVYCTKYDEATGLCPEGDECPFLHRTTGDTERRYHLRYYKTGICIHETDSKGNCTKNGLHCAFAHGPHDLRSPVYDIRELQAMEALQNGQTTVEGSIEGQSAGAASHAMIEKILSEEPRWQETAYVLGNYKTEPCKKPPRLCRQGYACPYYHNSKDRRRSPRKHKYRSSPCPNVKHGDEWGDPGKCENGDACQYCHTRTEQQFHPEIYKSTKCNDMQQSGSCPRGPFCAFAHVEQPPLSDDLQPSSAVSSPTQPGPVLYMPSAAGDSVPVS
# Method: RNA Bind-n-Seq
# Form: RNA
# Sample: in vitro
# Concentration: 100 nM
# Setting: RNA with constant flanks, vertebrate orthologous sites, ends assumed
# Baseline: input RNA pool
# Reading: higher = stronger binding
Oligonucleotide,bound/input enrichment
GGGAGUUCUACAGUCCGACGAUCCCCCAGCACGCUCGUAAAAAGUGUGGACUGGCUGCUUGUUUUUUCCUUAUUCUUUUUAGUUAGUUUUAUUAUGUAUGCUGCCAUUCGAACUGAGAGUAUUCGGUGGCUGAUUCCAGGACACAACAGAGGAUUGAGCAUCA,4.28 ratio
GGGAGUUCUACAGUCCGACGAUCACCUACAAUAAUGAAAACCUACAGAAAUUUUUUAAUUUUUCAUUUCCCUUUAGGCAUAUUUAGUCCUUUUCCCCCCAGGCAGAUCAUUCUGAGUGUGCGAGUGUGUGUGCACAUGUUACACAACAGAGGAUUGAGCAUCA,1.17 ratio
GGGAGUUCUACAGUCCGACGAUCGUGUUGGUGCGGAGUUCUCUGUGCCAGUGCUCAUCACCCCUUCUUCAUACCAACUGUCCCUAGUUAUAGGAAUUUAAUAUUUUUAAAAGUUUUACAUUGCUGUAUAUUCAAAGAUUUGUUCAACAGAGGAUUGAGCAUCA,0.597 ratio
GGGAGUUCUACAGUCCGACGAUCACAAAGGCACUUUCUCCUUCGGUCUUUCAUUGUAAGAAGAAAUGGACCCAUGCACAUUUAUAUAGCUUUCUAAUAGCAUUAAAACCAAUGCCUUUUUAGACUCCUAUUUUUGAUGUAUAUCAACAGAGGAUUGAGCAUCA,0.358 ratio
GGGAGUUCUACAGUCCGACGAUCUGAGGGAGAGAUUUCUGUGCUUUCUCAUAUUUAAUUUACUCUUUUUAAGAUAUUCCAACCUAGAGUUUUUGAUGGAACUGAUAUAUUGACAGUUCUCACCUAAGUCCUUUUAUAAAGAAUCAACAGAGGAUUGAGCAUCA,1.38 ratio
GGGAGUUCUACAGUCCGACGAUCCAGGGAGAAGAGAUCACAAACUCAAAGGAAAACUAUUAAAGAGUUCUAACAGUUAAGAGCUAGGAAAGAUUAGGACAAUUUUACAAAUGAGCAGUCGAAAAGAAAAGAACAGAAAAAGACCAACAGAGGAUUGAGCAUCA,0.778 ratio
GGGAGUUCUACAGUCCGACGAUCUUCAGGCACAACUGACUGGUUCACAGCAUUCCUUACAUAGUUAUCUAUCAAAUGCAAGUGUAGGUAAUUUUCAGGAAACAACCAGGCAGUCACCUUUGUCCUGUAGUUCAAUUGGAGAGUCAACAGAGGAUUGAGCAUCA,0.983 ratio
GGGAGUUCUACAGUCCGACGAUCUACUGUUGUUAAGCACUGUUCCAGACCGUGUCUGACUUUAGUGUAACCUAGGAGAUUUUAUAGUUUUAUUUUAAUGGAAUCCUGCCUGACGCAGAGCAGUUGGGAGAGCAGUGUCUUCUGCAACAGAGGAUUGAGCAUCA,1.54 ratio
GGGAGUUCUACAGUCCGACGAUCACACUUAUAUCGUGGCAUAUAGUCAACAUGGAAGUAGACCAGCUCUGCUGAUUUGAAAUUUAGAUUUUUUUUAAUUAUGUACUGGGGACAGGUUUUUGUCGCUUUACAUUGCUUCCUAGUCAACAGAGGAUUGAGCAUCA,4.9 ratio
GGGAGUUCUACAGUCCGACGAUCCAUCUCUUGUUUUAUAUGUCCAAAAAUGGCUUUGAAUUUUAAGCAAUUACUAGUUUUAAUUAGCUCUGCCCUCAUGAAGUAUUAUUAUAAUUCACCAUAAACAGCUAUCUGUCUGAAUUACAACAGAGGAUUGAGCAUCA,1.28 ratio
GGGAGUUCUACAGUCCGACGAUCAUGCAUUUUUACAAUCUACUUAACUGGGAUUUUCAAACAAUAGGAAGCUUUUUUUUUUUUUUUACAGUUUGGUUUCUACGUGGAGGACUAAAUUAAUGCUUCUAGCUACAUGUGGUCUUUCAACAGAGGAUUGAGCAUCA,0.932 ratio

# Sample 3
# Target: PABPC1L2, full length, GST fusion (mouse, UniProt A0ABA7IW68)
# Method: RNAcompete
# Form: RNA
# Sample: in vitro
# Concentration: 20 nM
# Setting: 7-mer, probes averaged, single round
# Baseline: mean of 7-mers
# Reading: higher = stronger binding
# Construct (chain): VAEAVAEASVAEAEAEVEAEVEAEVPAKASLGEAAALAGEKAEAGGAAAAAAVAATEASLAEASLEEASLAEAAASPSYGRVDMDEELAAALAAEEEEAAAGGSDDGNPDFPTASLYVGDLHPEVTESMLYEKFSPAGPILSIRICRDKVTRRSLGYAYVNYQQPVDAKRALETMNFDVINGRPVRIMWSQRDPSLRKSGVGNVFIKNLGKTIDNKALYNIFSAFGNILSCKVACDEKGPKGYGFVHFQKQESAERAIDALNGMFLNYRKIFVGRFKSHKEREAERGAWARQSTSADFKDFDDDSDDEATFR
Oligonucleotide,7-mer Z-score
GGCAGAA,0.572
GCGCAAG,-0.249
UGAUUUA,0.202
GUCACGC,-0.168
GACCCGA,-0.128
CCACGGA,0.0968
GCACAUG,-0.206
GGGGGCU,0.506
GGUUGUG,-0.246
CGAUCUU,-0.141
UACAAAA,4.71
UGCCAAC,-0.132
AUUUUUU,-0.306
ACGUUCC,-0.335
AAAGGGG,1.62
GUGUUUU,-0.423
CGCUUCG,-0.34
ACUCCGC,-0.106
CCGGGGG,-0.0156

# Sample 4
# Target: Interferon regulatory factor 7, full length, phosphomimetic (IRF7, Homo sapiens, UniProt Q92985, residues 1-503, S101K/S471D/S472D/S475D/S476D/S477D/S483D/S484D/S487D)
# UniProt Q92985, sequence (whole entry, unmodified, looked up): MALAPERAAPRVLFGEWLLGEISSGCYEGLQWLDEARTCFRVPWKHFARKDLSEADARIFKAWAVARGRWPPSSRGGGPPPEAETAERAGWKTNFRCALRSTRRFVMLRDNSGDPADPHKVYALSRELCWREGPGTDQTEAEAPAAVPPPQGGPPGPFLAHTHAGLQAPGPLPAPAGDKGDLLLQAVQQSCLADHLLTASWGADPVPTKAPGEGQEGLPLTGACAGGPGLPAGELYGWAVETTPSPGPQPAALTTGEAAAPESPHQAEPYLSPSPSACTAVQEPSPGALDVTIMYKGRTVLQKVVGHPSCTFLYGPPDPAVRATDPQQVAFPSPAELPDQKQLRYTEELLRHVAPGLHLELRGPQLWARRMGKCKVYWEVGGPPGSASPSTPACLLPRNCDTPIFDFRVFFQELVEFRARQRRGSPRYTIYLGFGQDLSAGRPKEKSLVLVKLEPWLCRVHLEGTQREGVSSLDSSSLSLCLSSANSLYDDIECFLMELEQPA
# Method: protein-binding microarray
# Form: double-stranded DNA, one strand shown
# Sample: in vitro
# Concentration: 250 nM
# Setting: 60-bp whole probe
# With: salmon DNA 0.4 mg/ml
# Baseline: random background probes
# Reading: higher = stronger binding
# All sequences stand within: GCCTAGCAC … GTCTTGATTCGCTTGACGCTGCTG
Oligonucleotide,log fluorescence [z-score]
TCATCTCCCATTCTGAAACTGTGCTAG,0.942
TCAACTTTGACTTAAGAACTGTGCTAG,0.337
TTAGGACTGGCCTATCGGTTAGTGCTA,-0.259
GACGGTTTCGACACAGGGGACGTGCTA,4.38
GGCGGTTTCGGGTATCGGGACGTGCTA,7.46
GCTGTTCTCAGACTGGGTGCGTGCTAG,0.785
GACGGTTTCGCGTTTCGGGACGTGCTA,7.76
GTTTATTTATTTTTACATTAGTGCTAG,1.46
TCATGTCTGTTTTTGCTACTGTGCTAG,0.34
GACGGTGCCCTTTTCCTGACGTGCTAG,0.348
TGGAGTCTCTGTTCTTTTCAGTGCTAG,1.21
GACGAAATCGGGTATCGAGACGTGCTA,-0.0669
GACGGTCTCGGTATAGGGACGTGCTAG,1.56
TTAGGTATCGTACTGGGTTAGTGCTAG,0.216
TCAGCTCTGTGCATAGTACTGTGCTAG,-0.794
AGCCAGGCAACCTATGGCCTGTGCTAG,-1.53
TTATATATCGGGTTTCGATTAGTGCTA,7.43
AGGGAGGTCTCTCCCGACCTGTGCTAG,-0.867
TCATTTTTCAAGAAACAGACTGTGCTA,1.23
GACGGACTGGGACTGGGCACGTGCTAG,-0.573
TCAACTTTCTTTTTTTCACTGTGCTAG,1.05

# Sample 5
# Organism: Saccharomyces cerevisiae
# Observed: binding
# Method: competitive growth deep sequencing
# Form: peptide
# Strain: cyclin D3-Cln2 fusion strain
# Setting: peptide tiling library
# Reading: direction not given
Molecule,enrichment score
IFNKPECGRVQRAIFQ,-1.26
ELGMEHCEKFEISETS,0.992
NCKKRRALDFLSRLPL,-1.26
NRLLKLFTRCLTPLVP,-2.18
NARRSLNFGGSTGT,-0.499
NLEPNAEFDKRTEFIT,0.708
TQERKQIHCLSEDELS,0.348
SGYLTDENEVGFRG,0.756
RRRIKLPESDSSED,1.62
TLPYDLACTGGDFVLF,0.858
VRDLSYRLVFLACCVA,-0.497
EAAPPTQEAQGETEPT,0.893
VEEEFFALRKRTPSAG,0.168
ALTMEALEDPSPELME,1.64
IPMIAKNLMCELDE,-0.018
RNRGPKLNAMLRLGVL,-2.94
LFVPQRKLEVSTEDVH,-1.27

# Excerpt of the above (sample 4):
Oligonucleotide,log fluorescence [z-score]
TCATCTCCCATTCTGAAACTGTGCTAG,0.942
GACGGACTGGGACTGGGCACGTGCTAG,-0.573
GGCGGTTTCGGGTATCGGGACGTGCTA,7.46
TCAACTTTCTTTTTTTCACTGTGCTAG,1.05
TTAGGACTGGCCTATCGGTTAGTGCTA,-0.259
TTAGGTATCGTACTGGGTTAGTGCTAG,0.216
GACGGTCTCGGTATAGGGACGTGCTAG,1.56
GACGGTGCCCTTTTCCTGACGTGCTAG,0.348
GACGGTTTCGACACAGGGGACGTGCTA,4.38
GTTTATTTATTTTTACATTAGTGCTAG,1.46
GCTGTTCTCAGACTGGGTGCGTGCTAG,0.785
TGGAGTCTCTGTTCTTTTCAGTGCTAG,1.21
AGCCAGGCAACCTATGGCCTGTGCTAG,-1.53
GACGGTTTCGCGTTTCGGGACGTGCTA,7.76
